Experimental data pooled from the literature.
FGFR3: Fibroblast growth factor receptor 3 (FGFR3, Homo sapiens, UniProt P22607)
Chain of UniProt P22607 (whole entry, looked up): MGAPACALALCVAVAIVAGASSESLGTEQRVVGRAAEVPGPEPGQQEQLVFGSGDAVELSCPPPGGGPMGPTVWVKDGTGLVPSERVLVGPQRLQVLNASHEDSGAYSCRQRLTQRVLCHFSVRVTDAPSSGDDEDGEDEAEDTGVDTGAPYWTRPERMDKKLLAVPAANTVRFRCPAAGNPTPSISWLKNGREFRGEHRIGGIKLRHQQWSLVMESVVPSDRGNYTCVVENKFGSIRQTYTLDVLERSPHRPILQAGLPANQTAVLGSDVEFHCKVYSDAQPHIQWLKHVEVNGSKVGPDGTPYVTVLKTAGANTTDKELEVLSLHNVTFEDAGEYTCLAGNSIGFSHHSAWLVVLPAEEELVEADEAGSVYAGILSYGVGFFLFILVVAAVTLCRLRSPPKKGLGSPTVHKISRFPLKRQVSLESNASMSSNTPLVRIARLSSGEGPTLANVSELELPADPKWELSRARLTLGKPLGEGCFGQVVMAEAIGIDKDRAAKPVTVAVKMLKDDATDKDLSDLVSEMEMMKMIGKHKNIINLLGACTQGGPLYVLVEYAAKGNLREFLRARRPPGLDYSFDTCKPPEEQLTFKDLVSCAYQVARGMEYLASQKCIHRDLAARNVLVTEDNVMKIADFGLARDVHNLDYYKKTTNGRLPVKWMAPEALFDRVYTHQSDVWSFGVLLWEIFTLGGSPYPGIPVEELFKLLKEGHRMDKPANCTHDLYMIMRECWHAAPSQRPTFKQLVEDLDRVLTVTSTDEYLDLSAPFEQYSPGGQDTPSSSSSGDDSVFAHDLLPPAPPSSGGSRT
RMS3: RMS3 (Lathyrus oleraceus, UniProt A0A109QYD3)
Chain of UniProt A0A109QYD3 (whole entry, looked up): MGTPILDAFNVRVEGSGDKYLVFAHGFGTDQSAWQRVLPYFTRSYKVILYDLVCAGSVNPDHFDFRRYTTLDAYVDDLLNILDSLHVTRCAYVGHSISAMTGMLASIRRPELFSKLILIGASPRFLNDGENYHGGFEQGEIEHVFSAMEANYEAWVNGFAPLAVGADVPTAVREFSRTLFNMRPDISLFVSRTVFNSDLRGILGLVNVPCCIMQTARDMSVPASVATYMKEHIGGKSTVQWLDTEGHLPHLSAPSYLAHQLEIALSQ
Chain of UniProt P27467 (whole entry, looked up): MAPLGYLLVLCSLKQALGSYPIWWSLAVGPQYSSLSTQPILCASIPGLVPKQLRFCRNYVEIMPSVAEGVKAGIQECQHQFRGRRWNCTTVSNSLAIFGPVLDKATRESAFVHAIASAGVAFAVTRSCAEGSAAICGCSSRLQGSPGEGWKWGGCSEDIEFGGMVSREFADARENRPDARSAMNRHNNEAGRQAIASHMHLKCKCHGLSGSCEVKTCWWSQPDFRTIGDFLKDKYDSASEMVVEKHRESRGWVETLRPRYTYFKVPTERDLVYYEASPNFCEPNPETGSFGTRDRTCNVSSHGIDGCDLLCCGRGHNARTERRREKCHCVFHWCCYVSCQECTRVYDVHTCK
Chain of UniProt Q9GZT9 (whole entry, looked up): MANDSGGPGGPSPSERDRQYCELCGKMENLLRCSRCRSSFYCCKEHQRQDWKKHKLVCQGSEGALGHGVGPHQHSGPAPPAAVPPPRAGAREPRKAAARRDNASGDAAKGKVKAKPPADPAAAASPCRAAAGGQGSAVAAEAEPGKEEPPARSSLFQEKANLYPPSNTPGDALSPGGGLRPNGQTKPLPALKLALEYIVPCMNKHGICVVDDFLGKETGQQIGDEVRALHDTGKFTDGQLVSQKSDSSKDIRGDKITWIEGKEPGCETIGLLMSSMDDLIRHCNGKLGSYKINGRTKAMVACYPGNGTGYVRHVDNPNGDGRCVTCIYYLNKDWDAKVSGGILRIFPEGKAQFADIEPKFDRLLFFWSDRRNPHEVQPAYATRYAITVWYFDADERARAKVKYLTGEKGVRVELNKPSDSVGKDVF
Chain of UniProt Q04609 (whole entry, looked up): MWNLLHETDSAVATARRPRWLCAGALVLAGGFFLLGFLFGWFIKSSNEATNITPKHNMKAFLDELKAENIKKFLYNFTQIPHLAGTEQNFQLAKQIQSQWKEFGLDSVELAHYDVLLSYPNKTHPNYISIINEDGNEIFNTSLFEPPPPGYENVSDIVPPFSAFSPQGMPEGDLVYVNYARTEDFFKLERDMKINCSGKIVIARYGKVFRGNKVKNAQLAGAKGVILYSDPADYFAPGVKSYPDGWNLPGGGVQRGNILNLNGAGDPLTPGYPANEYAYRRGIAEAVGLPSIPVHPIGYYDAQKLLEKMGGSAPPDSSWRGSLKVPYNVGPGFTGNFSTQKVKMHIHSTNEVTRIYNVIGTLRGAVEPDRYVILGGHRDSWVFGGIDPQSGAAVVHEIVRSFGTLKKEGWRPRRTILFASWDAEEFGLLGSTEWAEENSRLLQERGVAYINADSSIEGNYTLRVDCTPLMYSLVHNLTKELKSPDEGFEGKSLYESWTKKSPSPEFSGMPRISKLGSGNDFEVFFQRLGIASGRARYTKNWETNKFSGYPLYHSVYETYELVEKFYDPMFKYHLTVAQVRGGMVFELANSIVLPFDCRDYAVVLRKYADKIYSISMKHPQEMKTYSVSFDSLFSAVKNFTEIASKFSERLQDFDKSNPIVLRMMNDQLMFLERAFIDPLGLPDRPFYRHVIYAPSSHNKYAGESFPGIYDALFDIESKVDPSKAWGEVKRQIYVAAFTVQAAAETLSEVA
Chain of UniProt Q460N5 (whole entry, looked up): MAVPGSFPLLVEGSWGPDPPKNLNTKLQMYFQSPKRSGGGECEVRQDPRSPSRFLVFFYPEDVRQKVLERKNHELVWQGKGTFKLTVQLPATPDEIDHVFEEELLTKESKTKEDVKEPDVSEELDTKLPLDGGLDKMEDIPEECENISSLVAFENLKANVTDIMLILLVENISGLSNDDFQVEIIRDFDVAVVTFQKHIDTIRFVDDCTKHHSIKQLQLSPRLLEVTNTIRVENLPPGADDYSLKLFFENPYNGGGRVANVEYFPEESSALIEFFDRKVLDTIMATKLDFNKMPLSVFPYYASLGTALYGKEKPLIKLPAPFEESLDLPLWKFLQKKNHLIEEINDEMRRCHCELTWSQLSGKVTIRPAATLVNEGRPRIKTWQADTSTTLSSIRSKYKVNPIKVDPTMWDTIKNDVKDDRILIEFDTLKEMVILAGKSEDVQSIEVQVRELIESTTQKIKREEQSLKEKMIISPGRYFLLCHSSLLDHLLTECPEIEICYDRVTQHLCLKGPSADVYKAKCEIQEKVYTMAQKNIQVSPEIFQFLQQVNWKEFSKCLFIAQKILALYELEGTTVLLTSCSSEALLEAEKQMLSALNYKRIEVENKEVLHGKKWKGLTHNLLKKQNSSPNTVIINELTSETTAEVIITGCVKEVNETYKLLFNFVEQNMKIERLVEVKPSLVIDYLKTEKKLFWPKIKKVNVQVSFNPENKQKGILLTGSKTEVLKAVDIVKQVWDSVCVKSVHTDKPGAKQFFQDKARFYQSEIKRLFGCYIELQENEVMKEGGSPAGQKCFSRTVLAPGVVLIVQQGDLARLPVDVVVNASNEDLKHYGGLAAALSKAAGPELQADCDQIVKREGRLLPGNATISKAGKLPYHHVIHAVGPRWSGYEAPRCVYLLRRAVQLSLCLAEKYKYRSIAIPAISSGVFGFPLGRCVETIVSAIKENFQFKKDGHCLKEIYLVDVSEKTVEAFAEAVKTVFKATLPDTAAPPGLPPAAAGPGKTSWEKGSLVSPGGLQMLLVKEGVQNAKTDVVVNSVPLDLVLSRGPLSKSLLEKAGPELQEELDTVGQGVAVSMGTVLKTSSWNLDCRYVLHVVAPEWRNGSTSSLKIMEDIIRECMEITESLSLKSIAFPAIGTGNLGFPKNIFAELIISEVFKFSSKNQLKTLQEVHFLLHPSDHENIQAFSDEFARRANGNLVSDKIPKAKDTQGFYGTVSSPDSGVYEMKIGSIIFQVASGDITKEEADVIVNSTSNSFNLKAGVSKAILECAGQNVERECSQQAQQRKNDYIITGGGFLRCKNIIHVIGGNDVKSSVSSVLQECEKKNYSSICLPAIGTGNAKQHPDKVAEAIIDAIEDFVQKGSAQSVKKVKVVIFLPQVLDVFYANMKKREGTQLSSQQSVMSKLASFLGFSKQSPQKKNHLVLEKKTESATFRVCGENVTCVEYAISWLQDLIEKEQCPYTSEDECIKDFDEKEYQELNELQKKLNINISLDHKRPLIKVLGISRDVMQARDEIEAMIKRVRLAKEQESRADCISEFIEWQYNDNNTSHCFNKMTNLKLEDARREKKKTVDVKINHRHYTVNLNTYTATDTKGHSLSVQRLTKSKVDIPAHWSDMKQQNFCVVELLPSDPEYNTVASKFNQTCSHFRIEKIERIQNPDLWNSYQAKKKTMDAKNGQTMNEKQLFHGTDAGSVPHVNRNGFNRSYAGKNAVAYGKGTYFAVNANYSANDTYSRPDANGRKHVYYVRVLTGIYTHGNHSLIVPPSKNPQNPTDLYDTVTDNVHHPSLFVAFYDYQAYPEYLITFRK
Chain of UniProt O66465 (whole entry, unmodified, looked up): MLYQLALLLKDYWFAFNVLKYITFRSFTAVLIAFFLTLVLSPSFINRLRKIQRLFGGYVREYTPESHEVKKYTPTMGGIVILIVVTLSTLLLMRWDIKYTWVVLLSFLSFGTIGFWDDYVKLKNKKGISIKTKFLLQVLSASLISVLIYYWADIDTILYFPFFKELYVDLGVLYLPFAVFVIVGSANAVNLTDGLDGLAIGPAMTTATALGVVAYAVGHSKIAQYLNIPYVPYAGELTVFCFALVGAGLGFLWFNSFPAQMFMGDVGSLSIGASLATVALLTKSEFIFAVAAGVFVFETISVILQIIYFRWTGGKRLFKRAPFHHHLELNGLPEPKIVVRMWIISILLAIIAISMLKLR
Chain of UniProt P22629 (whole entry, looked up): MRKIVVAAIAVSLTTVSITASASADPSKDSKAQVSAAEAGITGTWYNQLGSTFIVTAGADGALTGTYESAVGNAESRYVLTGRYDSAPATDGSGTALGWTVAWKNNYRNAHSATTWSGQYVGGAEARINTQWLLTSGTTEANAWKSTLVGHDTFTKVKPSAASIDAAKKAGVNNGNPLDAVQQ

`Nc1ncnc2c1ncn2[C@@H]1O[C@H](CO[P@](=O)(O)O[P@](=O)(O)OC[C@H]2O[C@@H](O)[C@H](O)[C@@H]2O)[C@@H](O)[C@H]1O` gave a Kd of 4700 nM (Protein mono-ADP-ribosyltransferase PARP14, macrodomain 2 (PARP14, Homo sapiens, UniProt Q460N5); lower = stronger binding).
For `C[C@@H](O)[C@@H]1NC(=O)[C@H](CC(=O)O)NC(=O)CNC(=O)[C@H](CCC(N)=O)NC(=O)[C@@H]2CCCN2C(=O)[C@H](Cc2cnc[nH]2)NC(=O)[C@@H](N)CSSC[C@@H](C(=O)NCC(N)=O)NC1=O`, the Kd was 20700 nM (Streptavidin (Streptomyces avidinii, UniProt P22629)).
`CC(C)CC(NC(=O)C(NC(=O)NC(C(=O)O)C(C)C)C1CCNC(=N)N1)C(=O)NCCCNC(C(=O)O)C(OC1OC(CN)C(O)C1O)C1OC(n2ccc(=O)[nH]c2=O)C(O)C1O` (stereo not shown) gave a Kd of 68.4 nM (mraY (Aquifex aeolicus, UniProt O66465, F262W); binding, ITC).
`CC(C)C[C@@H]1NC(=O)[C@H](CC(C)C)NC(=O)[C@H](CC(N)=O)NC(=O)[C@@H]2CCCN2C(=O)[C@H](CC(C)C)NC(=O)[C@H](CC(C)C)NC(=O)[C@H](CC(C)C)NC(=O)[C@@H](NC(=O)[C@H](CO)NC(=O)[C@H](CC(N)=O)NC(=O)[C@@H](N)C(C)C)CSSC[C@@H](C(=O)NCC(=O)N[C@@H](CC(=O)O)C(=O)N[C@@H](CC(=O)O)C(=O)N[C@@H](CCCCNC(=O)CCCC[C@@H]2SC[C@@H]3NC(=O)N[C@@H]32)C(=O)NCCCCCC(=O)NCCCCCC(=O)NCCCCCC(=O)NCCCCCC(=O)NCCCCCC(=O)N[C@@H](CCCCNC(=O)CCCCc2cn(CCCC[C@H](NC(=O)N[C@@H](CCC(=O)O)C(=O)O)C(=O)O)nn2)C(=O)NCC(N)=O)NC(=O)CNC1=O` gave a Kd of 40 nM (FOLH1 (Homo sapiens, UniProt Q04609); binding).
The Kd of `CC[C@H](C)[C@@H]1NC(=O)[C@H](CC(C)C)NC(=O)[C@H](CCC(=O)O)NC(=O)CNC(=O)CNC(=O)[C@@H](NC(=O)[C@@H](NC(=O)[C@H](CCC(N)=O)NC(=O)[C@H](CC(C)C)NC(=O)[C@H](CCC(N)=O)NC(=O)[C@H](Cc2ccc(O)cc2)NC(=O)[C@@H](N)[C@@H](C)O)C(C)C)CSSC[C@@H]2NC(=O)[C@@H](NC(=O)[C@H](C)NC(=O)[C@H](CC(=O)O)NC(=O)[C@H](C)NC(=O)[C@H](CC(C)C)NC(=O)CN)CSSC[C@H](NC(=O)[C@H](CCC(=O)O)NC(=O)[C@H](CC(N)=O)NC(=O)[C@H](CCCCN)NC2=O)C(=O)N[C@@H](CC(N)=O)C(=O)N[C@@H](CCC(=O)O)C(=O)N[C@@H](CC(N)=O)C(=O)N[C@@H](CCC(=O)O)C(=O)N[C@@H](CC(C)C)C(=O)N[C@@H](CC(=O)O)C(=O)N[C@@H](CCCNC(=N)N)C(=O)N[C@@H](Cc2ccc(O)cc2)C(=O)N[C@H](C(=O)N[C@@H](CC(N)=O)C(N)=O)CSSC[C@@H](C(=O)NCC(=O)N[C@@H](CC(=O)O)C(=O)N[C@@H](CCCNC(=N)N)C(=O)NCC(=O)N[C@H](C(=O)N[C@@H](Cc2ccc(O)cc2)C(=O)N[C@H](C(=O)N2CCC[C@H]2C(=O)N[C@@H](CO)C(=O)N[C@@H](CCCNC(=N)N)C(=O)N[C@@H](CCCNC(=N)N)C(=O)O)[C@@H](C)O)C(C)C)NC(=O)[C@H](Cc2c[nH]cn2)NC(=O)[C@H](CCC(=O)O)NC(=O)[C@H]([C@@H](C)O)NC(=O)[C@H](CC(C)C)NC(=O)[C@H](C)NC(=O)[C@H](CC(=O)O)NC1=O` is reported as 41.3 nM (IGF1R (Homo sapiens, UniProt P08069); ligand displacement, radioligand).
`CSCC[C@H](NC(C)=O)C(=O)N[C@@H](CO)C(=O)N[C@@H](CO)C(=O)N1CCC[C@H]1C(=O)N1CCC[C@H]1C(=O)N[C@H]1CSCc2cc3cc(c2)CSC[C@@H](C(=O)N[C@@H](CC(C)C)C(=O)N[C@@H](CCCNC(=N)N)C(=O)N[C@@H](CCCNC(=N)N)C(=O)N[C@@H](Cc2ccc(O)cc2)C(=O)NCC(=O)N[C@@H](CO)C(=O)NCC(=O)N[C@@H](CO)C(=O)NCC(=O)N[C@@H](CO)C(=O)N[C@@H](CC(=O)O)C(=O)N[C@@H](Cc2ccc(O)cc2)C(=O)N[C@@H](CCCCN)C(=O)N[C@@H](CC(=O)O)C(=O)N[C@@H](CC(=O)O)C(=O)N[C@@H](CC(=O)O)C(=O)N[C@@H](CC(=O)O)C(=O)N[C@@H](CCCCN)C(N)=O)NC(=O)[C@H](CSC3)NC(=O)CNC(=O)[C@H](CC(C)C)NC(=O)[C@H]([C@@H](C)O)NC1=O` has a Kd of 13.3 nM (FGFR3; binding, BLI).
The Kd of `CC(=O)NC1C(O)OC(CO)C(O)C1OC1OC(CO)C(O)C(O)C1O` (stereo not shown) is reported as 60000 nM (Intermedilysin (Streptococcus intermedius, UniProt Q9LCB8); binding).
For `CC[C@H](C)[C@@H]1NC(=O)[C@@H]2CCCN2C(=O)[C@@H](NC(=O)[C@H](C)NC(=O)[C@H](CCSC)NC(C)=O)CSCc2cc3cc(c2)CSC[C@@H](C(=O)N[C@@H](Cc2ccc(O)cc2)C(=O)NCC(=O)N[C@@H](CO)C(=O)NCC(=O)N[C@@H](CO)C(=O)NCC(=O)N[C@@H](CO)C(=O)N[C@@H](CC(=O)O)C(=O)N[C@@H](Cc2ccc(O)cc2)C(=O)N[C@@H](CCCCN)C(=O)N[C@@H](CC(=O)O)C(=O)N[C@@H](CC(=O)O)C(=O)N[C@@H](CC(=O)O)C(=O)N[C@@H](CC(=O)O)C(=O)N[C@@H](CCCCN)C(N)=O)NC(=O)[C@H](Cc2ccc(O)cc2)NC(=O)[C@H](CCCNC(=N)N)NC(=O)[C@H](CC(C)C)NC(=O)[C@H]([C@@H](C)O)NC(=O)[C@H](CC(N)=O)NC(=O)[C@H]([C@@H](C)O)NC(=O)[C@H](CSC3)NC(=O)CNC1=O`, the Kd was 33.2 nM (FGFR3; binding, BLI).
With `CC1=C[C@H](O/C=C2/C(=O)O[C@@H]3c4ccccc4C[C@H]23)OC1=O` (racemic) the Kd was 22000 nM (RMS3; binding, fluorescence).
`CC[C@H](C)[C@@H]1NC(=O)[C@H](CCCNC(=N)N)NC(=O)[C@H](CO)NC(=O)[C@H](CC(C)C)NC(=O)[C@H](Cc2ccc(O)cc2)NC(=O)[C@H](Cc2ccccc2)NC(=O)[C@H]([C@@H](C)O)NC(=O)[C@H](CCCNC(=N)N)NC(=O)[C@@H]2CCCN2C(=O)[C@H](CC(=O)O)NC(=O)[C@H](Cc2c[nH]c3ccccc23)NC(=O)[C@H](C(C)C)NC(=O)[C@@H](Cc2ccc(O)cc2)NC(=O)CSC[C@@H](C(N)=O)NC1=O` has a Kd of 0.17 nM (Egl nine homolog 1 (EGLN1, Homo sapiens, UniProt Q9GZT9); binding, BLI).
`CC(=O)N[C@@H](C)C(=O)N[C@@H](C)C(=O)N1CCC[C@H]1C(=O)N1CCC[C@H]1C(=O)N[C@@H](CCCCN)C(=O)N[C@@H](CCCCN)C(=O)N1CCC[C@H]1C(=O)N1CCC[C@H]1C(=O)N[C@@H](CCCNC(=N)N)C(=O)N1CCC[C@H]1C(=O)NCC(=O)N[C@@H](C)C(=O)N1CCC[C@H]1C(=O)NCC(N)=O` gave a Kd of ~14000 nM (Enhancer of filamentation 1, SH3 domain (NEDD9, Homo sapiens, UniProt Q14511); binding, isothermal titration calorimetry; 25 °C).
`CC1=C(C)C(Oc2c(F)cc3c(C)cc(=O)oc3c2F)OC1=O` (racemic) has a Kd of 58900 nM (RMS3; binding, fluorescence).
For `CCCS(=O)(=O)N1CCN(Cc2ccc(NC(=O)c3ccc(-c4cc(NC(=O)C5CC5)ccc4OC(F)(F)F)cc3)cc2)CC1`, the Kd was > 1000 nM (Genome polyprotein, NS5A domain 1 (Hepatitis C virus genotype 1b, UniProt Q9WMX2, Y2065H)).
The Kd of `COc1cc2c3cc1Oc1cc(ccc1O)CC1c4c(cc(OC)c(O)c4Oc4ccc(cc4)CC3N(C)CC2)CCN1C` (stereo not shown) is reported as < 75000 nM (Glideosome-associated protein 50 (GAP50, Plasmodium falciparum, UniProt Q8I2X3); surface plasmon resonance).
With `CC(C)C[C@@H]1NC(=O)[C@H](Cc2ccc(O)cc2)NC(=O)[C@H](CCCCN)NC(=O)[C@H](CCCNC(=N)N)NC(=O)[C@@H](Cc2ccc(O)cc2)NC(=O)CSC[C@@H](C(=O)NCC(N)=O)NC(=O)[C@H](Cc2c[nH]c3ccccc23)NC(=O)[C@H](Cc2c[nH]c3ccccc23)NC(=O)[C@H](Cc2ccccc2)NC(=O)[C@H](CCCNC(=N)N)NC(=O)[C@H](CCC(=O)O)NC(=O)[C@H](Cc2ccc(O)cc2)NC1=O` the Kd was 171 nM (Protein Wnt-3a, with afamin (Mus musculus, UniProt P27467); binding, SPR single cycle kinetics; immobilised mWnt3a–human afamin complex; 25 °C).
The Kd of `Oc1ccc(O)c2ccccc12` is reported as < 7000 nM (Serine/threonine-protein kinase PAK 1, PBD (PAK1, Homo sapiens, UniProt Q13153); SPR; 25 °C).

Some of these lines once more:
`CC(=O)N[C@@H](C)C(=O)N[C@@H](C)C(=O)N1CCC[C@H]1C(=O)N1CCC[C@H]1C(=O)N[C@@H](CCCCN)C(=O)N[C@@H](CCCCN)C(=O)N1CCC[C@H]1C(=O)N1CCC[C@H]1C(=O)N[C@@H](CCCNC(=N)N)C(=O)N1CCC[C@H]1C(=O)NCC(=O)N[C@@H](C)C(=O)N1CCC[C@H]1C(=O)NCC(N)=O` gave a Kd of ~14000 nM (Enhancer of filamentation 1, SH3 domain (NEDD9, Homo sapiens, UniProt Q14511); binding, isothermal titration calorimetry; 25 °C).
